Measurements gathered from unrelated publications.
Each line is one published result; not all experiments were run side by side. Several values in a cell are separate wells, animals, samples, runs or records. Numbers after ± are the reported error.
UniProt P51817, sequence (whole entry, looked up): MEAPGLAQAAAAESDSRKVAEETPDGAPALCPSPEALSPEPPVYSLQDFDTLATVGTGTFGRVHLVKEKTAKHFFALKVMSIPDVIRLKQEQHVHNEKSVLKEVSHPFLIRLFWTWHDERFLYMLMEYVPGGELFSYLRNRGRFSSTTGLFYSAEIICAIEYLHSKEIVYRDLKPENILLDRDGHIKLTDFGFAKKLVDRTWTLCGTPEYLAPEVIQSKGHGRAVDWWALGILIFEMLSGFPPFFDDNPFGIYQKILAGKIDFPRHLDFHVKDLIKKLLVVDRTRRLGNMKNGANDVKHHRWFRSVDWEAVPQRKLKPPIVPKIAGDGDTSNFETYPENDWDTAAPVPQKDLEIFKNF

Structure (SMILES) = COC1OC(C)C(O)C(OC2OC(C)C(O)C(OC3OC(C)C(O)C(OC4OC(C)C(O)C(OC5OC(C)C(O)C(OC6OC(C)C(O)C(OC7OC(C)C(O)C(OC8OC(C)C(O)C(OC9OC(C)C(O)C(OC%10OC(C)C(O)C(OS(=O)(=O)O)C%10OS(=O)(=O)O)C9OS(=O)(=O)O)C8OS(=O)(=O)O)C7OS(=O)(=O)O)C6OS(=O)(=O)O)C5OS(=O)(=O)O)C4OS(=O)(=O)O)C3OS(=O)(=O)O)C2OS(=O)(=O)O)C1OS(=O)(=O)O (stereo not drawn); system = human plasma; setting = 128 µg/mL; scale = baseline: control; endpoint = thrombin time prolongation; result = 0.9 fold
Structure (SMILES) = CN1CCC[C@]1(C)/C=C/S(=O)(=O)NC(=O)Nc1c2c(cc3c1CCC3)CCC2; system = human, whole blood ex vivo; setting = 100 mg twice daily, day 1, 3 h, multiple ascending dose, together with: LPS and ATP; endpoint = IL-1β inhibition; result = 99%
Structure (SMILES) = Cc1[nH]nc2c1N=C(c1ccccc1Cl)c1cnc(N3CCOCC3)cc1N2; system = mouse sample C TNBC PDX, LAR subtype; setting = oral, 15 mg/kg, 5 days per week; endpoint = tumour growth inhibition; result = 98%
Structure (SMILES) = C=C1CC[C@H](OCCCNC(=O)CCOCCOCCOCCOCCOCCOCCOCCOCCOCCOCCOCCOCCOCCOCCOCCOCCOCCOCCOCCOCCOCCOCCOCCOCCOCCOCCOCCOCCOCCOCCOCCOCCOCCOCCOCCOCCNC(=O)CCN2C(=O)CC(SC[C@H](NC(=O)[C@H](Cc3ccccc3)NC(=O)[C@H](CC(N)=O)NC(=O)[C@H](Cc3c[nH]cn3)NC(=O)[C@@H](NC(=O)[C@H](CC(=O)O)NC(=O)[C@H](CCC(N)=O)NC(=O)[C@H](CC(C)C)NC(=O)[C@H](CCCCN)NC(=O)[C@H](CCCCN)NC(=O)[C@H](CCCNC(=N)N)NC(=O)[C@H](CC(C)C)NC(=O)[C@H](Cc3c[nH]c4ccccc34)NC(=O)[C@H](CCC(=O)O)NC(=O)[C@@H](NC(=O)[C@H](CCCNC(=N)N)NC(=O)[C@H](CCC(=O)O)NC(=O)[C@H](CCSC)NC(=O)[C@H](CO)NC(=O)[C@H](CC(N)=O)NC(=O)[C@H](CC(C)C)NC(=O)[C@H](Cc3c[nH]cn3)NC(=O)[C@H](CCCCN)NC(=O)CNC(=O)[C@H](CC(C)C)NC(=O)[C@H](CC(N)=O)NC(=O)[C@H](Cc3c[nH]cn3)NC(=O)[C@H](CCSC)NC(=O)[C@H](CC(C)C)NC(=O)[C@H](CCC(N)=O)NC(=O)[C@@H](NC(=O)[C@H](CCC(=O)O)NC(=O)[C@H](CO)NC(=O)[C@@H](NC(=O)[C@@H](N)CO)C(C)C)[C@@H](C)CC)C(C)C)C(C)C)C(=O)O)C2=O)C/C1=C/C=C1\CCC[C@]2(C)[C@@H]([C@H](C)CCCC(C)(C)O)CC[C@@H]12 (stereo partly drawn); system = male cynomolgus monkey, plasma; setting = subcutaneous, 0.007 mg/kg, single dose; endpoint = bioavailability; result = 44.5%
Structure (SMILES) = COc1cc(O)ccc1CCC(c1ccc(O)cc1)c1cc2c(c(C)c1O)OC(c1ccc(O)cc1)CC2 (mixture of isomers); assay = refers to: 15-HETE; system = human whole blood; setting = 30 µM, together with: Escherichia coli; endpoint = amount; result = 3440 ± 764 pg/mL blood
Structure (SMILES) = C=CC(=O)Nc1cccc(Cn2ncc3cnc(Nc4cnn(CCOC)c4)nc32)c1; tested on = PRKD3 human; assay = binding, KINOMEscan; setting = 100 nM; scale = lower = stronger binding; endpoint = percent of control; result = 100%
Structure (SMILES) = Cc1ccc(N(O)/N=N/c2ccc(S(=O)(=O)Nc3nccs3)cc2)cc1; assay = carrageenan-induced paw edema; system = Wistar rat; setting = oral, 100 mg/kg, 4 h after carrageenan, together with: carrageenan 1% subplantar; scale = higher = more edema; endpoint = paw edema volume; result = 4.6 ± 0.52 a.u.
Structure (SMILES) = O=C(N[C@@H](Cc1ccc(OCCCCC2CCNCC2)cc1)C(=O)O)c1nc2ccccc2o1.O=C(O)C(F)(F)F; assay = platelet aggregation, inhibitor, impedance aggregometry; system = human, whole blood, 1:1 saline; setting = 100 nM, 6 min, 37 °C, together with: ADP 20 µM; scale = higher = more aggregation; endpoint = aggregation impedance AUC; result = 16 a.u. and 11.7 a.u. and 32.3 a.u. and 22.2 a.u.
Structure (SMILES) = C=C(NC(=O)c1csc(-c2nc3c(cc2O)-c2nc(cs2)C(=O)NC(C(C)O)C(=O)NC(=C(C)OC)c2nc(cs2)C(=O)NC2c4nc(cs4)C(=O)NC(COC(=O)c4c5c6c(cccc6n4O)COC(=O)C(OC4CC(C)(O)C(N(C)C)C(C)O4)C2OC5)c2nc-3cs2)n1)C(N)=O (stereo not drawn); system = ICR mice, Streptococcus pneumoniae ATCC 49169 infected, immunocompromised, blood; setting = intravenous, 2 mg/kg/day once daily; endpoint = MRT(0-t); result = 45.6 min
Structure (SMILES) = COC1CN([C@H]2CC[C@H]([C@@]3(C)Oc4c(Cl)cc(C(=O)NCc5c(SC)cc(C)[nH]c5=O)c(C)c4O3)CC2)C1; assay = RNA-seq, refers to: KAZN; system = human, whole blood; setting = dose not given, 24 h; scale = baseline: pretreatment baseline; endpoint = log2 fold change; result = 2.53
Structure (SMILES) = COC1OC(C)C(OS(=O)(=O)O)C(OC2OC(C)C(OS(=O)(=O)O)C(OC3OC(C)C(OS(=O)(=O)O)C(OC4OC(C)C(OS(=O)(=O)O)C(OC5OC(C)C(OS(=O)(=O)O)C(OC6OC(C)C(OS(=O)(=O)O)C(OS(=O)(=O)O)C6OS(=O)(=O)O)C5OS(=O)(=O)O)C4OS(=O)(=O)O)C3OS(=O)(=O)O)C2OS(=O)(=O)O)C1OS(=O)(=O)O (stereo not drawn); system = human plasma; setting = 128 µg/mL; endpoint = thrombin time; result = 10.1 ± 1 s
Structure (SMILES) = O=C(N[C@@H](Cc1coc2ccccc12)B(O)O)[C@@H]1C[C@H]2CC[C@@H]1O2; assay = tumour growth; system = MM1.S, mouse, MM1.S multiple myeloma xenograft; setting = oral, 10 mg/kg every 2 days, 48 h; endpoint = T/C; result = -53%
Structure (SMILES) = CC(C)C[C@H](NC(=O)[C@@H](CCCCNC(=O)CCCCCCCCCCNC(=O)CN1CCN(CC(=O)O)CCN(CC(=O)O)CCN(CC(=O)O)CC1)NC(=O)[C@H](Cc1ccc(O)cc1)NC(=O)[C@H](CO)NC(=O)[C@H](Cc1c[nH]c2ccccc12)NC(=O)[C@H](Cc1cnc[nH]1)NC(=O)[C@@H]1CCC(=O)N1)C(=O)N[C@@H](CCCN=C(N)N)C(=O)N1CCC[C@H]1C(=O)NCC(N)=O [indium-111 labelled]; system = athymic nude mouse, female, whole blood; setting = intravenous, 0.037 MBq, 2 h; endpoint = tissue uptake; result = 0.78 ± 0.15 %ID/g
Structure (SMILES) = COc1ccc(C(=O)CCc2cc(C(CCc3ccc(O)cc3OC)c3ccc(O)cc3)c(O)cc2OC)cc1 (racemic); system = human blood; setting = 3 µM, together with: A23187; endpoint = 5-HETE level; result = 6670 ± 2180 pg/mL
Structure (SMILES) = Cc1ncsc1-c1ccc(C(C)NC(=O)C2CC(O)CN2C(=O)C(NC(=O)CCCCCCCCCCN2CCCC(Nc3ncc(Cl)c(Nc4ccccc4S(=O)(=O)C(C)C)n3)C2)C(C)(C)C)cc1 (stereo not drawn); tested on = 22Rv1; assay = RNA-seq, refers to: ZNF223 mRNA; setting = concentration not given; scale = baseline: DMSO; endpoint = log2 fold change; result = -2.47
Structure (SMILES) = Nc1ncc(-c2cc(-c3cnn(CC(F)(F)F)c3)ncc2F)nc1C(=O)NC1CNCC(F)C1 (stereo not drawn); tested on = MYLK4; assay = KINOMEscan; setting = 1 µM; scale = baseline: DMSO control; endpoint = remaining binding; result = 100%
Structure (SMILES) = COC1OC(C)C(OC2OC(C)C(OS(=O)(=O)O)C(OC3OC(C)C(OS(=O)(=O)O)C(OS(=O)(=O)O)C3OS(=O)(=O)O)C2OS(=O)(=O)O)C(OS(=O)(=O)O)C1OS(=O)(=O)O (stereo not drawn); system = human plasma; setting = 128 µg/mL; endpoint = thrombin time; result = 10.2 ± 0.2 s
Structure (SMILES) = CCC(=O)N[C@@H](C)C(=O)OCC(=O)N[C@@H](C)C(=O)O; system = water; setting = pH 8, 65 °C; endpoint = chain scission rate constant; result = 0.792 h⁻¹
Structure (SMILES) = O=CCNCCOn1c(=O)n(OCCNCCO)c(=O)n(OCCNCCOn2c(=O)n(OCCNCCO)c(=O)n(OCCNCCO)c2=O)c1=O; assay = DPPH scavenging; setting = 500 µg/mL; endpoint = inhibition; result = 33.2%
Structure (SMILES) = COC1OC(C)C(OS(=O)(=O)O)C(OC2OC(C)C(OS(=O)(=O)O)C(OC3OC(C)C(OS(=O)(=O)O)C(OC4OC(C)C(OS(=O)(=O)O)C(OC5OC(C)C(OS(=O)(=O)O)C(OC6OC(C)C(OS(=O)(=O)O)C(OC7OC(C)C(OS(=O)(=O)O)C(OC8OC(C)C(OS(=O)(=O)O)C(OC9OC(C)C(OS(=O)(=O)O)C(OC%10OC(C)C(OS(=O)(=O)O)C(OC%11OC(C)C(OS(=O)(=O)O)C(OC%12OC(C)C(OS(=O)(=O)O)C(OS(=O)(=O)O)C%12O)C%11O)C%10O)C9O)C8O)C7O)C6O)C5O)C4O)C3O)C2O)C1O (stereo not drawn); system = human plasma; setting = 128 µg/mL; scale = baseline: control; endpoint = thrombin time prolongation; result = 0.9 fold
Structure (SMILES) = Cc1nn(-c2cccc(N)c2)c(=O)c2cnc(Nc3ccc(N4CCNCC4)cc3)nc12; tested on = cAMP-dependent protein kinase catalytic subunit PRKX (PRKX, Homo sapiens, UniProt P51817); assay = enzyme activity, inhibitor; endpoint = IC50; result = 1.76 µM
Structure (SMILES) = COC1OC(C)C(O)C(OC2OC(C)C(O)C(OC3OC(C)C(O)C(OC4OC(C)C(O)C(OC5OC(C)C(O)C(OC6OC(C)C(O)C(OC7OC(C)C(O)C(OC8OC(C)C(O)C(OC9OC(C)C(O)C(OS(=O)(=O)O)C9OS(=O)(=O)O)C8OS(=O)(=O)O)C7OS(=O)(=O)O)C6OS(=O)(=O)O)C5OS(=O)(=O)O)C4OS(=O)(=O)O)C3OS(=O)(=O)O)C2OS(=O)(=O)O)C1OS(=O)(=O)O (stereo not drawn); system = human plasma; setting = 128 µg/mL; endpoint = thrombin time; result = 9.6 ± 0.4 s
Structure (SMILES) = CC(C)C[C@H](NC(=O)[C@@H](CCCCNC(=O)[C@@H](Cc1ccccc1)NC(=O)CCCCCNC(=O)CN1CCN(CC(=O)O)CCN(CC(=O)O)CCN(CC(=O)O)CC1)NC(=O)[C@H](Cc1ccc(O)cc1)NC(=O)[C@H](CO)NC(=O)[C@H](Cc1c[nH]c2ccccc12)NC(=O)[C@H](Cc1c[nH]cn1)NC(=O)[C@@H]1CCC(=O)N1)C(=O)N[C@@H](CCCNC(=N)N)C(=O)N1CCC[C@H]1C(=O)NCC(N)=O [indium-111 labelled]; system = athymic nude mouse, female, pituitary; setting = intravenous, 0.037 MBq, 0.5 h; endpoint = tissue uptake; result = 38.6 ± 6.75 %ID/g
Structure (SMILES) = COc1cc2c(NC3CCN(C(C)C)CC3)cc(N3CCOCC3)nc2cc1OCCCN1CCCC1; assay = TMT quantitative proteomics, refers to: phosphoglycerate mutase 1; system = 5xFAD mice, hippocampus; setting = dose not given; endpoint = normalised protein abundance; result = -0.0129 and 0.00764 and -0.0193 and -0.0437 and -0.00525 and -0.0943 and -0.0775 and -0.0435

For quick reference, copied from above:
Structure (SMILES) = COC1OC(C)C(OC2OC(C)C(OS(=O)(=O)O)C(OC3OC(C)C(OS(=O)(=O)O)C(OS(=O)(=O)O)C3OS(=O)(=O)O)C2OS(=O)(=O)O)C(OS(=O)(=O)O)C1OS(=O)(=O)O (stereo not drawn); system = human plasma; setting = 128 µg/mL; endpoint = thrombin time; result = 10.2 ± 0.2 s
Structure (SMILES) = COC1OC(C)C(OS(=O)(=O)O)C(OC2OC(C)C(OS(=O)(=O)O)C(OC3OC(C)C(OS(=O)(=O)O)C(OC4OC(C)C(OS(=O)(=O)O)C(OC5OC(C)C(OS(=O)(=O)O)C(OC6OC(C)C(OS(=O)(=O)O)C(OC7OC(C)C(OS(=O)(=O)O)C(OC8OC(C)C(OS(=O)(=O)O)C(OC9OC(C)C(OS(=O)(=O)O)C(OC%10OC(C)C(OS(=O)(=O)O)C(OC%11OC(C)C(OS(=O)(=O)O)C(OC%12OC(C)C(OS(=O)(=O)O)C(OS(=O)(=O)O)C%12O)C%11O)C%10O)C9O)C8O)C7O)C6O)C5O)C4O)C3O)C2O)C1O (stereo not drawn); system = human plasma; setting = 128 µg/mL; scale = baseline: control; endpoint = thrombin time prolongation; result = 0.9 fold
Structure (SMILES) = CCC(=O)N[C@@H](C)C(=O)OCC(=O)N[C@@H](C)C(=O)O; system = water; setting = pH 8, 65 °C; endpoint = chain scission rate constant; result = 0.792 h⁻¹
